# Measured values from different studies.
# Protocols differ between the studies behind these lines.
# Organism: Enterococcus faecium
Compound,assay,system,conditions,MIC
CN1CCC(NCCC2(Cc3ccc(Cl)cc3)CCCCC2)CC1,microbial growth,VRE,10 h,200 µM
CNC(CC(C)C)C(=O)NC1C(=O)NC(CC(N)=O)C(=O)NC2C(=O)NC3C(=O)NC(C(=O)NC(C(=O)NCCCNC(=N)N)c4cc(O)cc(O)c4-c4cc3ccc4O)C(O)c3ccc(c(Cl)c3)Oc3cc2cc(c3OC2OC(CO)C(O)C(O)C2OC2CC(C)(N)C(O)C(C)O2)Oc2ccc(cc2Cl)C1O (centres unmarked),,ATCC BAA-2317 VanA,with: +POPE 100 µg/mL,4 µg/mL
C=C(NC(=O)C(=C)NC(=O)c1csc(C2=NC3c4csc(n4)C4NC(=O)c5csc(n5)C(C(C)(O)C(C)O)NC(=O)C5CSC(=N5)C(=CC)NC(=O)C(C(C)O)NC(=O)c5csc(n5)C3(CC2)NC(=O)C(C)NC(=O)C(=C)NC(=O)C(Cc2ccc(O)cc2)NC(=O)C(C(C)CC)NC2C=Cc3c(C(C)O)cc(nc3C2O)C(=O)OC4C)n1)C(N)=O (centres unmarked),broth microdilution,ATCC 12952 VRE,"18 h, 37 °C",0.11 µg/mL
CC(C)CNCc1cc(N(C)C)c2c(c1O)C(=O)C1=C(O)[C@]3(O)C(=O)C(C(N)=O)=C(O)[C@@H](N(C)C)[C@@H]3C[C@@H]1C2,,"494, Tet M and Tet L",,1 µg/mL
CC(C)C[C@H](NC(=O)[C@H](CC(N)=O)NC(=O)[C@H](CCCNC(=N)N)NC(=O)[C@@H](CC(C)C)NC(=O)[C@H](Cc1ccc2ccccc2c1)NC(=O)[C@H](CC(=O)O)NC(=O)[C@H](CCCCN)NC(=O)[C@@H](CC(C)C)NC(=O)[C@H](CCCNC(=N)N)NC(=O)[C@H](CCC(N)=O)NC(=O)[C@@H](NC(=O)[C@@H](CC(C)C)NC(=O)[C@H](CCCNC(=N)N)NC(=O)[C@H](CCCCN)NC(=O)[C@H](Cc1ccccc1)NC(=O)CN)C(C)C)C(=O)N[C@H](C(N)=O)C(C)C,broth microdilution,ATCC 51559,,3.1 µM
CNC(CC(C)C)C(=O)NC1C(=O)NC(CC(N)=O)C(=O)NC2C(=O)NC3C(=O)NC(C(=O)NC(C(=O)NCCNC(=N)N)c4cc(O)cc(O)c4-c4cc3ccc4O)C(O)c3ccc(c(Cl)c3)Oc3cc2cc(c3OC2OC(CO)C(O)C(O)C2OC2CC(C)(N)C(O)C(C)O2)Oc2ccc(cc2Cl)C1O (centres unmarked),broth microdilution,ATCC BAA-2317 VanA,,4 µg/mL
CCn1[c]([Au-]([Cl])([Cl])[Cl])[n+](CC)c2ccc(C(=O)OC)cc21,broth dilution,DSM 20477,"20 h, 37 °C",3.7 µM
CN(C)c1cc(CN2CCc3ccccc3C2)c(O)c2c1C[C@H]1C[C@H]3[C@H](N(C)C)C(O)=C(C(N)=O)C(=O)[C@@]3(O)C(O)=C1C2=O,,"494, Tet M and Tet L",,0.25 µg/mL
CCN(CC)CCCN1/C(=C/c2cc[n+](C)c3ccccc23)Sc2ccccc21,"microbial growth, broth dilution",ATCC49624,,8 µg/mL
CN(C)c1cc(CNCc2ccccc2)c(O)c2c1C[C@H]1C[C@H]3[C@H](N(C)C)C(O)=C(C(N)=O)C(=O)[C@@]3(O)C(O)=C1C2=O,,"494, Tet M and Tet L",,1 µg/mL
CNC(CC(C)C)C(=O)NC1C(=O)NC(CC(N)=O)C(=O)NC2C(=O)NC3C(=O)NC(C(=O)NC(C(=O)NCCCNC(=N)N)c4cc(O)cc(O)c4-c4cc3ccc4O)C(O)c3ccc(c(Cl)c3)Oc3cc2cc(c3OC2OC(CO)C(O)C(O)C2OC2CC(C)(NCc3ccc(-c4ccc(Cl)cc4)cc3)C(O)C(C)O2)Oc2ccc(cc2Cl)C1O (centres unmarked),,ATCC BAA-2317 VanA,−NaH2PO4,0.3 µg/mL

# Excerpt of the above:
Compound,assay,system,conditions,MIC
C=C(NC(=O)C(=C)NC(=O)c1csc(C2=NC3c4csc(n4)C4NC(=O)c5csc(n5)C(C(C)(O)C(C)O)NC(=O)C5CSC(=N5)C(=CC)NC(=O)C(C(C)O)NC(=O)c5csc(n5)C3(CC2)NC(=O)C(C)NC(=O)C(=C)NC(=O)C(Cc2ccc(O)cc2)NC(=O)C(C(C)CC)NC2C=Cc3c(C(C)O)cc(nc3C2O)C(=O)OC4C)n1)C(N)=O (centres unmarked),broth microdilution,ATCC 12952 VRE,"18 h, 37 °C",0.11 µg/mL
CNC(CC(C)C)C(=O)NC1C(=O)NC(CC(N)=O)C(=O)NC2C(=O)NC3C(=O)NC(C(=O)NC(C(=O)NCCCNC(=N)N)c4cc(O)cc(O)c4-c4cc3ccc4O)C(O)c3ccc(c(Cl)c3)Oc3cc2cc(c3OC2OC(CO)C(O)C(O)C2OC2CC(C)(N)C(O)C(C)O2)Oc2ccc(cc2Cl)C1O (centres unmarked),,ATCC BAA-2317 VanA,with: +POPE 100 µg/mL,4 µg/mL
